Results pooled from the literature.
Several values in a cell are separate wells, animals, samples, runs or records. ± marks the error that the study gave.

CC(C)Oc1cc(Cl)ccc1CNc1cc(-c2ccccc2)nc2ncnn12 — cAMP luminescence (endogenous β-adrenergic receptors; cAMP level, cAMP GloSensor; mock-transfected cells; 3 µM, with: isoprenaline 30 nM; higher = more cAMP): 29100 a.u. and 25300 a.u. and 25100 a.u.
Cn1ccc2cc(-n3c(=O)[nH]c4sc5c(c4c3=O)CCCC5)ccc21 — inhibition (human KATP potassium channel; radioligand binding; 10 µM): -5%
C[n+]1ccc(/C=N/NC(=O)c2ccc3ccc(C(=O)N/N=C/c4cc[n+](C)c5ccccc45)nc3n2)c2ccccc21 — ΔTm (22CTA telomeric G4-DNA antiparallel; FRET melting; 1 µM, K10 buffer, DNA 0.2 µM, with: ds26 10 µM): 17.4 ± 0.1 °C
N#Cc1ccc(-c2cnc(C(=O)CCCCCCc3ccccc3)o2)nc1 — inhibition (fatty-acid amide hydrolase (mouse); refers to: anandamide levels; mouse, brain; i.p., dose not given): > 90%
C=CC(=O)N1[C@@H](c2ccc3c(c2)OCO3)c2[nH]c3ccccc3c2C[C@H]1C(=O)N1CCN(C)CC1 — log2 fold change (CCNE1 WT-3xFLAG:CDK2 complex; co-IP TMT proteomics, refers to: ANKRD17; HEK-293T; 20 µM, 6 h; relative to: DMSO): -0.14
Cc1[nH]nc2c1N=C(c1ccccc1Cl)c1cnc(N3CCOCC3)cc1N2 — inhibition (thyroid hormone receptor, rat; radioligand binding; 10 µM): -2%
C[n+]1cc(/C=N/NC(=O)c2ccc3ccc4ccc(C(=O)N/N=C/c5cc6ccccc6[n+](C)c5)nc4c3n2)cc2ccccc21 — ΔTm (22CTA telomeric G4-DNA antiparallel; FRET melting; 1 µM, K10 buffer, DNA 0.2 µM, with: ds26 10 µM): 11.6 ± 0.6 °C
O=c1c(-c2cnn(-c3ccc(Cl)cc3)c2)c(C(F)(F)F)oc2c(O)c(O)ccc12 — di-ubiquitin formed (ROC1-CUL1 E3 subcomplex; di-ubiquitin synthesis; 37.5 µM; relative to: input): 65%
Nc1ncc(-c2cc(-c3cnn(CC(F)(F)F)c3)ncc2F)nc1C(=O)NC1CNCC(F)C1 (stereo not shown) — remaining binding (BRSK2; KINOMEscan; 1 µM; relative to: DMSO control): 35%
O=c1c(Oc2ccccc2)c(C(F)(F)F)oc2c(O)c(O)ccc12 — di-ubiquitin formed (ROC1-CUL1 E3 subcomplex; di-ubiquitin synthesis; 10 µM; relative to: input): 60%
C[n+]1cc(/C=N/NC(=O)c2cccc(C(=O)N/N=C/c3cc4ccccc4[n+](C)c3)n2)cc2ccccc21 — ΔTm (22CTA telomeric G4-DNA antiparallel; FRET melting; 1 µM, K10 buffer, DNA 0.2 µM): 12.1 ± 0.5 °C
C=CC(=O)Nc1cccc(Cn2ncc3cnc(Nc4cnn(CCOC)c4)nc32)c1 — percent of control (MAP3K15 human; binding, KINOMEscan; 100 nM; lower = stronger binding): 94%
C[n+]1cccc2cc(/C=N/NC(=O)c3cccc(C(=O)N/N=C/c4ccc5c(ccc[n+]5C)c4)n3)ccc21 — ΔTm (22CTA telomeric G4-DNA antiparallel; FRET melting; 1 µM, K10 buffer, DNA 0.2 µM, with: ds26 10 µM): 12.8 ± 0.6 °C
c1ccc(-c2n[nH]cc2-c2ccnc3ccccc23)nc1 — log2 fold change (YAK1 (Candida albicans); kinase binding, MIB/MS competition; Candida albicans lysate; 10 µM; relative to: DMSO): -0.42
O=C(N/N=C/c1ccc2c(ccc[n+]2Cc2ccccc2)c1)c1cccc(C(=O)N/N=C/c2ccc3c(ccc[n+]3Cc3ccccc3)c2)c1 — ΔTm (22CTA telomeric G4-DNA antiparallel; FRET melting; 1 µM, K10 buffer, DNA 0.2 µM): 14 ± 0.2 °C
OC[C@H]1O[C@@H]2O[C@H]3[C@H](O)[C@@H](O)[C@@H](O[C@H]4[C@H](O)[C@@H](O)[C@@H](O[C@H]5[C@H](O)[C@@H](O)[C@@H](O[C@H]6[C@H](O)[C@@H](O)[C@@H](O[C@H]7[C@H](O)[C@@H](O)[C@@H](O[C@H]1[C@H](O)[C@H]2O)O[C@@H]7CO)O[C@@H]6CO)O[C@@H]5CO)O[C@@H]4CO)O[C@@H]3CO — bioluminescence induction (LuxR; Escherichia coli sensor; 200 µM; higher = stronger induction): 769 ± 127 RLU

Some of these lines once more:
C[n+]1cccc2cc(/C=N/NC(=O)c3cccc(C(=O)N/N=C/c4ccc5c(ccc[n+]5C)c4)n3)ccc21 — ΔTm (22CTA telomeric G4-DNA antiparallel; FRET melting; 1 µM, K10 buffer, DNA 0.2 µM, with: ds26 10 µM): 12.8 ± 0.6 °C
C[n+]1cc(/C=N/NC(=O)c2ccc3ccc4ccc(C(=O)N/N=C/c5cc6ccccc6[n+](C)c5)nc4c3n2)cc2ccccc21 — ΔTm (22CTA telomeric G4-DNA antiparallel; FRET melting; 1 µM, K10 buffer, DNA 0.2 µM, with: ds26 10 µM): 11.6 ± 0.6 °C
